Published values from different studies.
Each numbered part is a random draw from the data of one study; scales do not carry over between parts. Positions count from the first letter of the parent shown.

Block 1
Target: CCNE1, cyclin fold, Cln2 fusion (human)
Method: yeast growth competition, sequencing
Medium: yeast
Notes: weak parent motif
Reference: not given
Reading: higher = stronger binding
Starting sequence: WEE1 docking peptide (human); HKTFRKLRLFDTP
Change	normalised enrichment score
K2W	1.12
T12W	0.932
L9T	-0.343
F4W	1.53
T12S	0.651
F10R	0.526
R5T	0.561
K6S	0.0912
F10S	-0.258
D11G	0.159
L9N	0.125
T3K	-0.422
L9A	0.72
K2R	0.982
K6C	0.572
R8D	0.386
P13S	-0.18
P13C	0.911
R5V	-0.0791
L7W	1.31
K2A	0.619
F10H	-0.0571
H1V	-0.105
H1D	1.33
F4R	0.884

Block 2
Target: Histone acetyltransferase KAT6A, winged helix 1, GST fusion (KAT6A, Homo sapiens, UniProt Q92794, residues 1-85)
Method: protein binding microarray
Molecule type: double-stranded DNA, one strand shown
Medium: in vitro
Tested at: not given
Notes: 8-mer, flanks averaged, mean of 2 arrays, mostly near background
Reference: not given
Reading: higher = stronger binding
Target sequence (chain): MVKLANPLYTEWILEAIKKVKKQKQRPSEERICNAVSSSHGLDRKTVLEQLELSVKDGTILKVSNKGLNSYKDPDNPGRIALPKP
Sequence	E-score
AACTCGCG	0.246
AACGTAGC	-0.0367
AGCCCCAA	-0.282
TAAGTCTA	-0.00984
CCTAACCG	0.134
AACATGGT	-0.17
ATTCAGAC	-0.25
CGGTACCC	0.237
CACTGACA	-0.152
ATGCGGCC	0.249
CGGCCGGA	0.328
AGAGCACC	-0.0694
CGGAACCA	0.0396
AAGCTTGG	-0.092
CGGGCCAA	0.0579
GATACAGC	-0.0538
ATCGACGC	0.107

Block 3
Target: RNA binding protein fox-1 homolog 2, RRM domain, GST-SBP tag (RBFOX2, Homo sapiens, UniProt O43251-10, residues 100-194)
Method: RNA Bind-n-Seq
Molecule type: RNA
Medium: in vitro
Tested at: 365 nM
Notes: natural RNA segment, single round, ends assumed
Reference: no-protein control
Reading: higher = stronger binding
Shared flanks, not repeated: GGGAGUUCUACAGUCCGACGAUC … UGGAAUUCUCGGGUGCCAA
Target sequence (chain): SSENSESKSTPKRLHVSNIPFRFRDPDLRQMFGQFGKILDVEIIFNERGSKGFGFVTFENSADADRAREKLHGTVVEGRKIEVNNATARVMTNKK
Sequence	RBNS enrichment (R)
UUAAGCAGUAUAGUAUUGGUUGGGUCAUUUGCAUCAUAUCGUUAGCAUUUAUUUGGUGGCAGAAUGUUUGCCUAGGUACAGAAUUAAUAGCCCUUAGCAACGACUGCUGC	4.95
GUAAGUAUCCACGACUCCAACCAGUAUUAUAGACCUUGGGGAUGUUUCAGAAUGUGGAAGUUACUAGGCCUGUCAAGCCAUCACUUCACCCCAAGAUCUCCAGUUUUAGA	0.373
AGUGCUGCUGGCACGUGGGACGCGGCAGGUGACAGCCGUUCUCAGCAUGUUUUAGAAGCUUGCCUCACAGACUUCCAUGCCUCUCCAUUCAGCCGAUGACUUCAGGGUGU	9.19
CUAUGCACUUGAAGAUGGUUUAAAAGAUUAAAGAAACGAUUAAGAGAAAAGGUUGGAAGCUUUAUACUAAAUGGGCUCCUUCAUGGUGACGCCCCGUCAACCACAAUCAA	0.415
UAAUGCCAAUUUAAGAUCUCUCUUAACUUGUGGCCAAGAAAUUCUAGAUUUUCCAGCUGACUUUGGUAUAAUAUAUAUUUAUCAGGAACUUCUCUCAGCAGAGAGUACCC	0.309
UGACUUUAUAUUUAAUACAUCUGCUGAUGCUUCGGGGCAUGUCCUGCCACAGGAUUUGCUAAUGUCUGAUGAUCAUGUUCACAGAGAACAUGGGUGAUUACUUGCAGCCA	0.338
UCCUCCAGGACCUGGGAAGCAAAGGCACAGGCCCACGGUGGCCAGCCAUUGUGGUGCCGCCCCAGCUUCUGGAUACAGCCUUUUGGGUAAACACUGGGAACUCCAGAAGU	0.24
AUAAGAAGCAAAGUAAAGUUUUCUGGAUCUGUGAUAAACAAUUCUUUGUUAAUUAAAGGCAAUUUUAUUACCUGUCUAAUUAAGAAUAUAUUUCCAAGUUAGCAGUUAUG	0.365

Block 4
Target: Interferon regulatory factor 7, full length, phosphomimetic (IRF7, Homo sapiens, UniProt Q92985, residues 1-503, S471D/S472D/S475D/S476D/S477D/S483D/S484D/S487D)
Method: protein-binding microarray
Molecule type: double-stranded DNA, one strand shown
Medium: in vitro
Tested at: 2200 nM top
Notes: 60-bp whole probe
Added: salmon DNA 0.4 mg/ml
Reference: random background probes
Reading: higher = stronger binding
Shared flanks, not repeated: GCCTAGCAC … GTCTTGATTCGCTTGACGCTGCTG
Target sequence (chain): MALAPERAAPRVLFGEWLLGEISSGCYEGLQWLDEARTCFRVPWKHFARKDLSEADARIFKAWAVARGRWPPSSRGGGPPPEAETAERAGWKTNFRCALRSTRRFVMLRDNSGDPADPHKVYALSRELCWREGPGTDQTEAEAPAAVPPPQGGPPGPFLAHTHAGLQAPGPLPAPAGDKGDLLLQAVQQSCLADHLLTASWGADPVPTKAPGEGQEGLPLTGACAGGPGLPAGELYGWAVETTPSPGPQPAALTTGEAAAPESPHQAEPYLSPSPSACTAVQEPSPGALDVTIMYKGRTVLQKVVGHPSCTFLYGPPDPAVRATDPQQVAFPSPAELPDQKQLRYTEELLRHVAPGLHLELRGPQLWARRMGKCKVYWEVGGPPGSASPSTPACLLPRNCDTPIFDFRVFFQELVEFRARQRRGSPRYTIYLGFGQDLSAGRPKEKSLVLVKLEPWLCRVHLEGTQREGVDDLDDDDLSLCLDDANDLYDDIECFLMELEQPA
Sequence	fitted relative affinity [z-score]
TTACATTTCAGTCTCGATTAGTGCTAG	2.5
GACGGTTTCGGTATCGGGAGGTGCTAG	8.21
TCATCTTTCACTGCTGCACTGTGCTAG	2.11
TTAGGTTTCGACACTGGGTAAGTGCTA	2.4
CTAGGTATCCTTCTCCTTTAGTGCTAG	1.07
GGATGACTCCCTCTCTGGCCGTGCTAG	0.185
TTATATATCAGTCTCGATTAGTGCTAG	0.883
GACGGTTTCGGTTCTGGGACGTGCTAG	11.9
GACGGTTTCGACCATCGGGACGTGCTA	2.63
GATGGTATCGACTATCGGGACGTGCTA	0.0743
TCATTTATCAAATGTGGGACTGTGCTA	0.49
TCAATTTTCTGAATGCCACTGTGCTAG	2.91
GACGGTTTCCTTCTCCTGGCGTGCTAG	2.97
GACGGTCTCGGTTTTGGGACGTGCTAG	1.3
TTAGGTTTGGGGACTGGGTTAGTGCTA	0.0257
TCAATTATATCTGTGTTACTGTGCTAG	0.839
TTAGGTTTCAACTATCGGTTAGTGCTA	0.755
GACGGGTTCGGGTTTCGGGACGTGCTA	2.03
TTAGGTTTCGGTTTCGGATAGTGCTAG	14.7

For quick reference, copied from above (block 3):
Sequence	RBNS enrichment (R)
UUAAGCAGUAUAGUAUUGGUUGGGUCAUUUGCAUCAUAUCGUUAGCAUUUAUUUGGUGGCAGAAUGUUUGCCUAGGUACAGAAUUAAUAGCCCUUAGCAACGACUGCUGC	4.95
UCCUCCAGGACCUGGGAAGCAAAGGCACAGGCCCACGGUGGCCAGCCAUUGUGGUGCCGCCCCAGCUUCUGGAUACAGCCUUUUGGGUAAACACUGGGAACUCCAGAAGU	0.24
UGACUUUAUAUUUAAUACAUCUGCUGAUGCUUCGGGGCAUGUCCUGCCACAGGAUUUGCUAAUGUCUGAUGAUCAUGUUCACAGAGAACAUGGGUGAUUACUUGCAGCCA	0.338
GUAAGUAUCCACGACUCCAACCAGUAUUAUAGACCUUGGGGAUGUUUCAGAAUGUGGAAGUUACUAGGCCUGUCAAGCCAUCACUUCACCCCAAGAUCUCCAGUUUUAGA	0.373
AGUGCUGCUGGCACGUGGGACGCGGCAGGUGACAGCCGUUCUCAGCAUGUUUUAGAAGCUUGCCUCACAGACUUCCAUGCCUCUCCAUUCAGCCGAUGACUUCAGGGUGU	9.19
UAAUGCCAAUUUAAGAUCUCUCUUAACUUGUGGCCAAGAAAUUCUAGAUUUUCCAGCUGACUUUGGUAUAAUAUAUAUUUAUCAGGAACUUCUCUCAGCAGAGAGUACCC	0.309
